Results pooled from the literature.
Every numbered part comes from another study and shows a few of its results, in no order. Substitutions count along the parent as printed.
UniProt O15294, sequence (whole entry, looked up): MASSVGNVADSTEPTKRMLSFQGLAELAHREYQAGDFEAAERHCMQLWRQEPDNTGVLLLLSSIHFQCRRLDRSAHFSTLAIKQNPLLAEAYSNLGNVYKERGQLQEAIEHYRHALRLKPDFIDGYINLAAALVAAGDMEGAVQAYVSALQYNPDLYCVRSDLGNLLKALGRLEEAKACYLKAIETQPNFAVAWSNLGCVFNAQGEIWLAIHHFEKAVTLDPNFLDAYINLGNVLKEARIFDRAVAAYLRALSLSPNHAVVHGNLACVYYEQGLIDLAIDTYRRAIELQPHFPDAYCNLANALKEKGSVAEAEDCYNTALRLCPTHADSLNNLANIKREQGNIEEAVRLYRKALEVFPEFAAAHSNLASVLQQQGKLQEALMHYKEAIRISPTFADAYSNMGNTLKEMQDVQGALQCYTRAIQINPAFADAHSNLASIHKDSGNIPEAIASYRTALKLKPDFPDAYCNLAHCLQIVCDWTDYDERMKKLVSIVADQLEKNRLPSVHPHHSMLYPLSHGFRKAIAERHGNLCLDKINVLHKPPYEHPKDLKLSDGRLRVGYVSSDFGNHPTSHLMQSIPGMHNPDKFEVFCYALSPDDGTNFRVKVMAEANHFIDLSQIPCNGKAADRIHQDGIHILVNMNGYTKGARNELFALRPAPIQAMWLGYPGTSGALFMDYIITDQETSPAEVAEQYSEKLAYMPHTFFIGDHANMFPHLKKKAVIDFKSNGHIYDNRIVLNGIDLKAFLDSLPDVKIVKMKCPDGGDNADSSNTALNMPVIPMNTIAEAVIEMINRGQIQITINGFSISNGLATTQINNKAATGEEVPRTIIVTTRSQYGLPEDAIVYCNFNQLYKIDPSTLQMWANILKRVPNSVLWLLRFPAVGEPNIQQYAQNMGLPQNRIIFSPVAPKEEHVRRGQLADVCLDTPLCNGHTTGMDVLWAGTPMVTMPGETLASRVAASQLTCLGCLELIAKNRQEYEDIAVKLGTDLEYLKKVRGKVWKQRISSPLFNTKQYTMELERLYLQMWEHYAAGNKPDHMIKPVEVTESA

Series 1
Target: Histone acetyltransferase KAT6A, winged helix 1, GST fusion (KAT6A, Homo sapiens, UniProt Q92794, residues 1-85)
Technique: protein binding microarray
Form: double-stranded DNA, one strand shown
Medium: in vitro
Tested at: not given
Setting: 8-mer, flanks averaged, mean of 2 arrays, mostly near background
Relative to: not given
Direction: higher = stronger binding
Construct (chain): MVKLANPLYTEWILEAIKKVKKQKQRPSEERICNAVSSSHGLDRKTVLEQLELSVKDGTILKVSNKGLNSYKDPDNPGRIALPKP
The E-score of `CACTACGC` is reported as 0.0789.
`AGTCTCGG` gave an E-score of 0.0625.
With `GATAAATA` the E-score was -0.0509.
With `AAGTCTGT` the E-score was -0.183.
For `CAGGTCTC`, the E-score was -0.172.
`CACGCTGG` has an E-score of -0.0232.
For `GTTTTCGA`, the E-score was -0.058.
The E-score of `ACTTCGTA` is reported as -0.166.

Series 2
Target: PABPC1L2, full length, GST fusion (mouse, UniProt A0ABA7IW68)
Technique: RNAcompete
Form: RNA
Medium: in vitro
Tested at: 20 nM
Setting: 7-mer, probes averaged, single round
Relative to: mean of 7-mers
Direction: higher = stronger binding
Target sequence (chain): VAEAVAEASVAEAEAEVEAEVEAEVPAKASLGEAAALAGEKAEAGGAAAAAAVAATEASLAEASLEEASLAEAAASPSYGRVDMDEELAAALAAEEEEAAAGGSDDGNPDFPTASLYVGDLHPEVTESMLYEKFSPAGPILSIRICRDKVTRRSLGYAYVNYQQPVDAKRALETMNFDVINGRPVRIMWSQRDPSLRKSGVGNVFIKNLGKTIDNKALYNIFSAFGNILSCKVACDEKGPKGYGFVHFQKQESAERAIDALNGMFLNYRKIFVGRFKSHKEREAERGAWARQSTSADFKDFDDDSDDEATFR
For `UAUAUAU`, the 7-mer Z-score was -0.137.
With `CCACGAC` the 7-mer Z-score was -0.119.
With `AAGUUAG` the 7-mer Z-score was 0.215.
The 7-mer Z-score of `UUAAGCU` is reported as -0.291.
With `GACACGU` the 7-mer Z-score was -0.213.
With `GCCAUCU` the 7-mer Z-score was -0.354.
The 7-mer Z-score of `CAUUCAA` is reported as -0.0573.
`CGCACAG` gave a 7-mer Z-score of -0.159.

Single results of other studies
P1: PafA, mature enzyme, eGFP fusion (Elizabethkingia meningoseptica, UniProt Q9KJX5); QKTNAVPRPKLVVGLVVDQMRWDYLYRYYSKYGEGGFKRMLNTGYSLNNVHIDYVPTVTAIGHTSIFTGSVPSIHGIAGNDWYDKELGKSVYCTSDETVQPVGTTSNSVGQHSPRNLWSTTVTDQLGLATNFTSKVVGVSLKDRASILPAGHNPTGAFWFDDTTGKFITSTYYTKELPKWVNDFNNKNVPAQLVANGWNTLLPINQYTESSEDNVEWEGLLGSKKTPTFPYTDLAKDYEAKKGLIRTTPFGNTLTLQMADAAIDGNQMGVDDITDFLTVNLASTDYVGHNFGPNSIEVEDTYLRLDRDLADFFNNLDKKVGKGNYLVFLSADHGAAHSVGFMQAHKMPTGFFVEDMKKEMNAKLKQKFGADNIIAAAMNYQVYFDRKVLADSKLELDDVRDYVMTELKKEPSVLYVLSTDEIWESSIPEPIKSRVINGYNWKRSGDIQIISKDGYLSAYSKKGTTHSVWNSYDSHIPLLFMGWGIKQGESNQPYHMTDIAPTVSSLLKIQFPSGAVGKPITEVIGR
Under “oxyanion analog dissociation constant”, `P1 D332G` is recorded as 1.62 µM (vanadate, free oxyanion; microfluidic competitive inhibition; in vitro, cell-free expressed; not given, derived from inhibition constants, unchanged parent 676 nM; lower = stronger binding).
`HPIHPHRNKFDVMFI`: “minimum log2 enrichment ratio” 1.74 (OGT (Homo sapiens, UniProt O15294); binding, phage display NGS; peptide; relative to: input library).

Repeated from above (series 2):
With `AAGUUAG` the 7-mer Z-score was 0.215.
